Measurements gathered from unrelated publications.
Protocols differ between the studies behind these lines. “And” joins repeats or separate records; there may be more than shown. ± gives the spread as reported.

CC(C)(Oc1ccc(CCNC(=O)c2ccc(Cl)cc2)cc1)C(=O)O
IC10 (HEK293-H PPARγ-UAS-bla cells; cell confluency, IncuCyte imaging; 24 h, nominal concentration): 533 µM

CC[C@H](C)[C@H](NC(=O)[C@@H](N)CC(N)=O)C(=O)N1CCC[C@H]1C(=O)N1CCC[C@H]1C(=O)N[C@@H](CC(C)C)C(=O)N[C@H](C(=O)N[C@@H](CCC(N)=O)C(=O)N[C@H](C(=O)N1CCC[C@H]1C(=O)N[C@H](C(=O)N[C@H](C(=O)N[C@H](C(=O)N1CCC[C@H]1C(=O)N1CCC[C@H]1C(=O)N[C@@H](Cc1ccccc1)C(=O)N[C@@H](CC(C)C)C(=O)N[C@@H](CCC(N)=O)C(=O)N1CCC[C@H]1C(=O)N[C@@H](CCC(=O)O)C(=O)O)C(C)C)C(C)C)C(C)C)[C@@H](C)O)[C@@H](C)O
transport (Caco-2 monolayers; 10 µM, 60 min, with: cytochalasin D 0.5 mg/mL preincubated 30 min; reference: untreated): no effect

COc1cc2c(c(OC)c1OC)-c1ccc(OC)c(=O)cc1[C@@H](NC(C)=O)CC2
micronuclei per binucleated cell (CHO-WBL; 0.16 µg/mL, 19 h, without S9): 0.074

CC[C@@H](C)[C@H]1O[C@@H](c2c(O)c(-c3ccccc3)cn(OC)c2=O)[C@H](C)C[C@@H]1C
cytotoxicity (LLC-PK11, SK-OV-3, BT-549, KB, SK-MEL; concentration not given): inactive

CC(c1ccccc1)(c1ccc(O)cc1)c1ccc(O)cc1
necrotic cells (HepG2 spheroids; annexin V-FITC/PI flow cytometry; 0.10 µM, 96 h): 39.1 ± 18%

O=C(O)C(F)(F)C(F)(F)C(F)(F)C(F)(F)F
LDH activity in medium (hTERT-RPTEC parental; LDH release; culture medium; concentration not given, 24 h, 96-well plate): 25.9 mU/mL

COC(=O)[C@@H]1[C@@H](c2ccccc2)[C@]2(c3ccc(OC)cc3)Oc3cc(OC)cc(OC)c3[C@@]23N=C(C)N[C@@]13O
CC50 (transfected HepG2; MTT; 24 h): 0.0971 µM

O=c1ccc2ccccc2o1
chance response (NHEK; cell count; concentration not given, 6 h, NRF2 oxidative stress panel): 3.07%

COc1ccc(CCN2CCC(Nc3nc4ccccc4n3Cc3ccc(F)cc3)CC2)cc1
CC50 (293T-ACE2; 40 (unit not given)): > 2.5 µM

N=C(N)NCCC[C@H](NC(=O)[C@H](CCCNC(=N)N)NC(=O)[C@H](CCCCN)NC(=O)[C@H](CCCNC(=N)N)NC(=O)[C@H](Cc1ccccc1)NC(=O)[C@H](Cc1ccc(O)cc1)NC(=O)[C@H](CCCNC(=N)N)NC(=O)[C@H](CCCNC(=N)N)NC(=O)[C@H](CCCNC(=N)N)NC(=O)[C@H](CCCNC(=N)N)NC(=O)[C@H](CCCNC(=N)N)NC(=O)[C@H](Cc1ccc(O)cc1)NC(=O)[C@H](CCCNC(=N)N)NC(=O)[C@@H](N)CCCNC(=N)N)C(=O)O
viability (DF-1; 5 µM, 48 h; reference: untreated cells): 101 ± 1.32%

N#CCc1c[nH]c2ccccc12
EC50 (uninfected HCT-8; cytotoxicity, Hoechst nuclei count): 1590 µM

N=C(N)NCCC[C@H](NC(=O)CN)C(=O)N[C@@H](Cc1c[nH]c2ccccc12)C(=O)N[C@@H](CCCNC(=N)N)C(=O)N[C@@H](Cc1c[nH]c2ccccc12)C(=O)N[C@@H](Cc1c[nH]c2ccccc12)C(=O)N[C@@H](Cc1c[nH]c2ccccc12)C(=O)N[C@@H](CCCNC(=N)N)C(=O)N[C@@H](Cc1c[nH]c2ccccc12)C(=O)N[C@@H](CCCNC(=N)N)C(=O)N[C@@H](Cc1c[nH]c2ccccc12)C(N)=O
LC50 (HD11 macrophages): 316 µM

N#C[C@@]1(n2ccc(N)nc2=O)O[C@H](CO)[C@@H](O)[C@H]1O
micronucleated cells (CHO; 31 µM, with S9): 0.09%

Cc1cc(O)ccc1Cl
IC10 (SH-SY5Y; cell viability, propidium iodide staining; 24 h, nominal concentration): 716 µM

CC(C)=CCN1Cc2cc(Cl)cc3[nH]c(=S)n(c23)C[C@@H]1C
CC50 (293T-ACE2; 40 (unit not given)): 1 µM

O=[N+]([O-])c1ccc(-c2nn(-c3ccccc3)c3sc(NC(c4ccccc4O)P(=O)(Oc4ccccc4)Oc4ccccc4)nc23)cc1 (stereo not drawn)
viability (Vero cells; SRB; 10 µM, 10% fetal bovine serum): 94.2%

C[C@H](NC(=O)[C@H](CCCNC(=N)N)NC(=O)[C@H](Cc1c[nH]c2ccccc12)NC(=O)[C@H](CCCNC(=N)N)NC(=O)[C@H](Cc1c[nH]c2ccccc12)NC(=O)[C@H](Cc1c[nH]c2ccccc12)NC(=O)[C@H](Cc1c[nH]c2ccccc12)NC(=O)[C@H](CCCNC(=N)N)NC(=O)[C@H](Cc1c[nH]c2ccccc12)NC(=O)[C@H](CCCNC(=N)N)NC(=O)CN)C(N)=O
LC50 (HD11 macrophages): > 512 µM

CC(C)(c1ccc(O)cc1)c1ccc(O)cc1
late apoptotic cells (HepG2 spheroids, dissociated; annexin V-FITC/PI flow cytometry; 0.1 µM, 24 h): 8.77 ± 1.83%

COc1ccc(/C=C/c2nc(N)[nH]c(=O)c2Br)cc1OC
minimum cytotoxic concentration (HEL human embryonic lung fibroblasts; cell morphology alteration): > 100 µM

O=C(O)C(F)(F)C(F)(F)C(F)(F)C(F)(F)C(F)(F)F
LDH release (hTERT-RPTEC parental; concentration not given, 96-well plate): 28.9 mU/mL and 28.6 mU/mL and 29.5 mU/mL and 29.9 mU/mL

Fc1ccc(Oc2ccnc3cc(Cl)cc(Cl)c23)cc1
toxic ratio (HEK293-H PPARγ-UAS-bla cells; cell confluency; 24 h, nominal concentration; reference: baseline IC10 over IC10): 0.17

Cc1cc(C(C)(C)c2ccc(O)c(C)c2)ccc1O
early apoptotic cells (HepG2 spheroids, dissociated; annexin V-FITC/PI flow cytometry; 1 µM, 24 h): 13.9 ± 1.76%

CC(C)(Oc1ccc(Cl)cc1)C(=O)O
toxic ratio (HEK293-H PPARγ-UAS-bla cells; cell confluency; 24 h, nominal concentration; reference: baseline IC10 over IC10): 0.33

O=c1[nH]c(=O)n([C@H]2C[C@H](O)[C@@H](CO)O2)cc1/C=C/Br
minimum cytotoxic concentration (HEL human embryonic lung fibroblasts; cell morphology alteration): > 250 µM

O=C(O)C(F)(F)C(F)(F)C(F)(F)C(F)(F)C(F)(F)C(F)(F)C(F)(F)C(F)(F)C(F)(F)F
LDH activity in medium (hTERT-RPTEC parental; LDH release; culture medium; concentration not given, 24 h, 96-well plate): 25.6 mU/mL

Oc1ccc(C2(c3ccc(O)cc3)c3ccccc3-c3ccccc32)cc1
viable cells (HepG2 spheroids, dissociated; annexin V-FITC/PI flow cytometry; 0.01 µM, 96 h): 39.5 ± 19%

C[C@H](NC(=O)[C@H](Cc1ccc(O)cc1)NC(=O)[C@H](CCCNC(=N)N)NC(=O)[C@H](CCCNC(=N)N)NC(=O)[C@H](CCCNC(=N)N)NC(=O)[C@@H](N)CCCNC(=N)N)C(=O)N[C@@H](CCCNC(=N)N)C(=O)N1CCC[C@H]1C(=O)N[C@@H](Cc1ccc(O)cc1)C(=O)N[C@@H](Cc1ccc(O)cc1)C(=O)N[C@@H](CCCNC(=N)N)C(=O)N[C@@H](CCCNC(=N)N)C(=O)N[C@@H](CCCNC(=N)N)C(=O)O
viability (DF-1; 5 µM, 12 h; reference: untreated cells): 103 ± 1.11%

Some of these lines once more:
CC[C@H](C)[C@H](NC(=O)[C@@H](N)CC(N)=O)C(=O)N1CCC[C@H]1C(=O)N1CCC[C@H]1C(=O)N[C@@H](CC(C)C)C(=O)N[C@H](C(=O)N[C@@H](CCC(N)=O)C(=O)N[C@H](C(=O)N1CCC[C@H]1C(=O)N[C@H](C(=O)N[C@H](C(=O)N[C@H](C(=O)N1CCC[C@H]1C(=O)N1CCC[C@H]1C(=O)N[C@@H](Cc1ccccc1)C(=O)N[C@@H](CC(C)C)C(=O)N[C@@H](CCC(N)=O)C(=O)N1CCC[C@H]1C(=O)N[C@@H](CCC(=O)O)C(=O)O)C(C)C)C(C)C)C(C)C)[C@@H](C)O)[C@@H](C)O
transport (Caco-2 monolayers; 10 µM, 60 min, with: cytochalasin D 0.5 mg/mL preincubated 30 min; reference: untreated): no effect
